Results collected from several papers.
Lines come from different studies, so protocols differ. “And” joins repeats or separate records; there may be more than shown. Numbers after ± are the reported error.

Structure (SMILES) = CC[C@H](C)[C@H](N)C(=O)N[C@@H](CCCNC(=N)N)C(=O)N[C@H](C(=O)N[C@@H](Cc1c[nH]c2ccccc12)C(=O)N[C@@H](Cc1c[nH]c2ccccc12)C(=O)N[C@@H](CCCCN)C(=O)N[C@H](C(=O)N[C@H](C(=O)N[C@@H](CCCNC(=N)N)C(=O)N[C@@H](CCCCN)C(=O)N[C@@H](Cc1c[nH]c2ccccc12)C(=O)N[C@@H](CCCCN)C(=O)N[C@@H](C)C(=O)N[C@H](C(=O)N[C@@H](Cc1c[nH]c2ccccc12)C(=O)N[C@@H](Cc1c[nH]cn1)C(N)=O)[C@@H](C)CC)C(C)C)[C@@H](C)CC)C(C)C; cell line = rat erythrocytes; setting = 200 µM, 60 min, 37 °C; measurement = hemolysis; value = 94.8 ± 2.2%
Structure (SMILES) = CC1=C(O)C(=O)C=C2C1=CC=C1[C@@]2(C)CC[C@@]2(C)[C@@H]3C[C@](C)(C(=O)O)CC[C@]3(C)CC[C@]12C; cell line = COS-7; setting = 3 µM, 24 h, 0.1% DMSO, unit not given; scale = baseline: vehicle control; measurement = confluence; value = 0.6 ± 0.05
Structure (SMILES) = Nc1nc(O)c2ncn(COC(CO)CO)c2n1; cell line = HEL; assay = cell morphology; measurement = minimal cytotoxic concentration; value = > 100 µM
Structure (SMILES) = CC(C)c1c(C(=O)Nc2ccccc2)c(-c2ccccc2)c(-c2ccc(F)cc2)n1CC[C@@H](O)C[C@@H](O)CC(=O)O; cell line = MCF7 AREc32 cells; assay = cell viability, IncuCyte imaging; setting = 24 h, freely dissolved concentration; measurement = IC10; value = 5.22 µM
Structure (SMILES) = CC[C@H](C)[C@H](NC(=O)CN)C(=O)N[C@@H](CC(C)C)C(=O)N[C@@H](CC(=O)O)C(=O)N[C@@H](C)C(=O)N[C@H](C(=O)N[C@@H](CCCCN)C(=O)N[C@@H](C)C(=O)N[C@H](C(=O)N[C@@H](C)C(=O)N[C@@H](CCCCN)C(=O)N[C@@H](C)C(=O)N[C@H](C(=O)N[C@@H](CCCCN)C(=O)N[C@@H](C)C(=O)N[C@@H](CCCCN)C(=O)N[C@@H](C)C(=O)NCC(N)=O)[C@@H](C)CC)[C@@H](C)CC)[C@@H](C)CC; cell line = sheep red blood cells; setting = 256 µM, 1 h, 37 °C; scale = baseline: Triton X-100; measurement = hemolysis; value = 28%
Structure (SMILES) = CC(C)C[C@H](NC(=O)[C@@H](NC(=O)[C@H](CCCNC(=N)N)NC(=O)[C@H](CCCCN)NC(=O)[C@H](CCCCN)NC(=O)CNC(=O)CNC(=O)CNC(=O)c1ccc2c(c1)C(=O)OC21c2ccc(O)cc2Oc2cc(O)ccc21)[C@@H](C)O)C(=O)N[C@@H](CCCNC(=N)N)C(=O)N[C@@H](CCCCN)C(=O)N[C@@H](CC(N)=O)C(=O)N[C@@H](CC(=O)O)C(=O)N[C@@H](CCCNC(=N)N)C(=O)N[C@@H](CCCCN)C(=O)N[C@@H](CCCCN)C(=O)N[C@@H](CCCNC(=N)N)C(=O)N[C@@H](CS)C(N)=O; cell line = hCMEC/D3 monolayers; assay = BBB permeability, Transwell, item: CF-labelled compound; system = EGM-2 medium; setting = concentration not given, 3 h, apical to basal; scale = baseline: fluorescence added apically; measurement = transport ratio; value = 7.1%
Structure (SMILES) = Oc1ccc(C2(c3ccc(O)cc3)c3ccccc3-c3ccccc32)cc1; cell line = HepG2 spheroids; assay = annexin V-FITC/PI flow cytometry; setting = 10 µM, 24 h; measurement = late apoptotic cells; value = 8.25 ± 2.31%
Structure (SMILES) = CS(=O)(=O)CCNCc1ccc(-c2ccc3ncnc(Nc4ccc(OCc5cccc(F)c5)c(Cl)c4)c3c2)o1; cell line = MRC-5, mock-infected; assay = nuclei count; setting = 96 h; measurement = LD50; value = 20.3 µM
Structure (SMILES) = O=C(O)C(F)(F)C(F)(F)C(F)(F)F; cell line = hTERT-RPTEC-OAT1; setting = concentration not given, 96-well plate; measurement = LDH release; value = 6.74 mU/mL and 6.29 mU/mL and 3.58 mU/mL and 4.49 mU/mL
Structure (SMILES) = COc1ccc(/C=C/c2nc(N)[nH]c(=O)c2Br)cc1OC; cell line = CRFK; assay = cytotoxicity, MTS; measurement = CC50; value = > 100 µM
Structure (SMILES) = CC(C)C[C@H](NC(=O)[C@H](CCCNC(=N)N)NC(=O)[C@H](CCCNC(=N)N)NC(=O)[C@H](CCCNC(=N)N)NC(=O)[C@@H]1CCCN1C(=O)[C@H](Cc1ccccc1)NC(=O)[C@H](Cc1ccc(O)cc1)NC(=O)[C@H](CCCNC(=N)N)NC(=O)[C@H](Cc1ccc(O)cc1)NC(=O)[C@@H](NC(=O)[C@H](CC(C)C)NC(=O)[C@H](Cc1ccc(O)cc1)NC(=O)[C@H](CCCNC(=N)N)NC(=O)[C@H](Cc1c[nH]cn1)NC(=O)[C@@H]1CCCN1C(=O)[C@H](Cc1c[nH]c2ccccc12)NC(=O)[C@H](Cc1ccc(O)cc1)NC(=O)[C@H](Cc1ccccc1)NC(=O)[C@@H]1CCCN1C(=O)[C@H](CCC(N)=O)NC(=O)[C@H](Cc1ccccc1)NC(=O)[C@@H]1CCCN1C(=O)[C@H](Cc1ccccc1)NC(=O)[C@H](CCCNC(=N)N)NC(=O)[C@H](Cc1c[nH]cn1)NC(=O)[C@H](CC(N)=O)NC(=O)[C@H](CS)NC(=O)[C@H](CCCNC(=N)N)NC(=O)[C@H](CO)NC(=O)[C@@H]1CCCN1C(=O)[C@@H](NC(=O)[C@H](Cc1ccccc1)NC(=O)[C@@H]1CCCN1C(=O)[C@H](CCCNC(=N)N)NC(=O)[C@H](CC(N)=O)NC(=O)[C@@H]1CCCN1C(=O)[C@H](Cc1ccccc1)NC(=O)[C@H](CCCNC(=N)N)NC(=O)[C@@H](N)Cc1ccccc1)C(C)C)[C@@H](C)O)C(=O)N[C@@H](CCC(N)=O)C(=O)N[C@@H](CCCNC(=N)N)C(=O)O; cell line = HaCaT; assay = cell viability, MTT; measurement = CC50; value = 32.4 µM
Structure (SMILES) = O=C(O)C(F)(F)C(F)(F)C(F)(F)C(F)(F)C(F)(F)F; cell line = hTERT-RPTEC-OAT1; setting = concentration not given, Transwell, apical-to-basolateral addition; measurement = LDH release; value = 20.2 mU/mL and 17.5 mU/mL and 12.7 mU/mL and 14.8 mU/mL
Structure (SMILES) = CC(C)CC(=O)OC[C@H]1O[C@@](C#N)(c2ccc3c(N)ncnn23)[C@H](O)[C@@H]1O; cell line = Caco-2 monolayer; setting = 9 µM, 2 h, with: zosuquidar 25 µM; measurement = efflux ratio; value = 1.46
Structure (SMILES) = Cc1cc2c(c(O)c1O)C(=O)c1c(O)cc(O)cc1C2=O; cell line = HK-2 co-cultured with HepaRG; assay = MTT; setting = 266.67 µM, 48 h; scale = baseline: untreated control; measurement = cell viability; value = 122 ± 4.78%
Structure (SMILES) = O=S(=O)(O)C(F)(F)C(F)(F)C(F)(F)C(F)(F)C(F)(F)C(F)(F)C(F)(F)C(F)(F)F; cell line = hTERT-RPTEC-OAT1; setting = concentration not given, 96-well plate; measurement = LDH release; value = 5.52 mU/mL and 5.1 mU/mL and 5.45 mU/mL and 3.02 mU/mL
Structure (SMILES) = COc1ccc2c(c1OC)C(=O)c1c(cc(C)c(O)c1OC)C2=O; cell line = HK-2 co-cultured with HepaRG; assay = MTT; setting = 16.67 µM, 48 h; scale = baseline: untreated control; measurement = cell viability; value = 97.5 ± 6.42%
Structure (SMILES) = CN(N=O)[C@H]1CC[C@@H](c2ccc(Cl)c(Cl)c2)c2ccccc21; cell line = TK6 expressing CYP2B6; setting = 0.02 µM, 4 h, without S9; scale = baseline: vehicle; measurement = relative survival; value = 52.2%
Structure (SMILES) = O=S(=O)(Nc1ccc(-c2n[nH]c(=S)o2)cc1)c1ccc(C(F)(F)F)cc1; cell line = HEK293T; assay = MTT; setting = 100 µM, 24 h; measurement = viability; value = 62% and 62.4%
Structure (SMILES) = O=c1ccc2ccccc2o1; cell line = NHEK; assay = cell count; setting = concentration not given, 6 h, apoptosis, necrosis, cell cycle panel; measurement = chance response; value = 0.01%
Structure (SMILES) = O=S(=O)(c1ccc(O)cc1)c1ccc(O)cc1; cell line = HepG2 spheroids, dissociated; assay = annexin V-FITC/PI flow cytometry; setting = 1 µM, 96 h; measurement = viable cells; value = 32.2 ± 19.3%
Structure (SMILES) = O=C1c2ccccc2C(=O)c2ccccc21; cell line = HK-2 co-cultured with HepaRG; assay = MTT; setting = 66.67 µM, 24 h; scale = baseline: untreated control; measurement = viability; value = 144 ± 22.4%
Structure (SMILES) = CCCCC1CNC2CCc3ccc(OC)cc3C12.Cl (racemic); cell line = MDCK-MDR1 cells; measurement = efflux ratio; value = 1.26
Structure (SMILES) = CC[C@H](C)[C@H](NC(=O)[C@H](C)NC(=O)[C@H](Cc1c[nH]cn1)NC(=O)CNC(=O)CNC(=O)CNC(=O)c1ccc2c(c1)C(=O)OC21c2ccc(O)cc2Oc2cc(O)ccc21)C(=O)N[C@@H](Cc1ccc(O)cc1)C(=O)N1CCC[C@H]1C(=O)N[C@@H](CCCNC(=N)N)C(=O)N[C@@H](Cc1c[nH]cn1)C(N)=O; cell line = hCMEC/D3 monolayers; assay = BBB permeability, Transwell, item: CF-labelled compound; system = EGM-2 medium; setting = concentration not given, 1 h, apical to basal; scale = baseline: fluorescence added apically; measurement = transport ratio; value = 4.2%
Structure (SMILES) = CC(=O)OC[C@H]1O[C@@H](Oc2cc(O)cc3cc4oc(C)cc(=O)c4c(O)c23)[C@H](O)[C@@H](O)[C@@H]1O; cell line = HK-2 co-cultured with HepaRG; assay = MTT; setting = 33.33 µM, 48 h; scale = baseline: untreated control; measurement = cell viability; value = 94.5 ± 4.97%
Structure (SMILES) = CC(C)C[C@H](NC(=O)[C@H](C)NC(=O)[C@H](CCCNC(=N)N)NC(=O)[C@H](CC(C)C)NC(=O)[C@H](CC(C)C)NC(=O)[C@H](CCCNC(=N)N)NC(=O)[C@@H]1CCCN1C(=O)[C@H](CC(C)C)NC(=O)[C@H](CC(=O)O)NC(=O)[C@H](CCCNC(=N)N)NC(=O)[C@H](CC(C)C)NC(=O)[C@H](CC(C)C)NC(=O)[C@H](CCCNC(=N)N)NC(=O)[C@H](Cc1ccc(O)cc1)NC(=O)[C@H](CCCNC(=N)N)NC(=O)[C@@H]1CCCN1C(=O)[C@H](CC(C)C)NC(=O)[C@H](C)NC(=O)[C@H](CCCNC(=N)N)NC(=O)[C@@H](N)CC(C)C)C(=O)N[C@@H](CC(=O)O)C(=O)N[C@@H](C)C(=O)N[C@@H](CCCNC(=N)N)C(=O)N1CCC[C@H]1C(=O)N[C@@H](Cc1ccccc1)C(=O)N[C@@H](C)C(=O)N[C@@H](CCC(=O)O)C(=O)N[C@@H](C)C(=O)N[C@H](C(=O)N[C@@H](CO)C(=O)N[C@@H](Cc1c[nH]c2ccccc12)C(=O)NCC(=O)N[C@@H](CCCNC(=N)N)C(=O)N[C@@H](CC(C)C)C(=O)NCC(=O)N[C@@H](C)C(=O)N[C@@H](CCCNC(=N)N)C(=O)N[C@@H](CCC(N)=O)C(=O)N[C@@H](CCCNC(=N)N)C(=O)N[C@@H](CCCNC(=N)N)C(=O)N[C@@H](CCC(N)=O)C(=O)N[C@@H](CO)C(=O)N[C@@H](CCCNC(=N)N)C(=O)O)[C@@H](C)O; cell line = HaCaT; assay = cell viability, MTT; setting = 24 h; measurement = CC50; value = 112 µM
Structure (SMILES) = C[C@@H]1O[C@@H](O[C@H]2C[C@@H](O)[C@]3(CO)[C@H]4[C@H](O)C[C@]5(C)[C@@H](C6=CC(=O)OC6)CC[C@]5(O)[C@@H]4CC[C@]3(O)C2)[C@H](O)[C@H](O)[C@H]1O; cell line = HEK293T; assay = ATP content; setting = 25 µM, 6 h; measurement = toxicity; value = not toxic

A few entries again:
Structure (SMILES) = O=c1ccc2ccccc2o1; cell line = NHEK; assay = cell count; setting = concentration not given, 6 h, apoptosis, necrosis, cell cycle panel; measurement = chance response; value = 0.01%
Structure (SMILES) = O=C(O)C(F)(F)C(F)(F)C(F)(F)F; cell line = hTERT-RPTEC-OAT1; setting = concentration not given, 96-well plate; measurement = LDH release; value = 6.74 mU/mL and 6.29 mU/mL and 3.58 mU/mL and 4.49 mU/mL
